Measurements pooled from the literature.
Numbered parts are unrelated; each lists some results of a single study. Changes are numbered by the printed parent chain.

Block 1 — method: RNA Bind-n-Seq; form: RNA; medium: in vitro; tested at: 200 nM; notes: whole 134-nt RNA, ends assumed; together with: 150 mM KCl; baseline: input library; reading: higher = stronger binding
Target: Fragile X messenger ribonucleoprotein 1, C-terminal low-complexity region (Fmr1, Mus musculus, UniProt P35922)
Shared flanks, not repeated: GGGAGUUCUACAGUCCGACGAUC … UGGAAUUCUCGGGUGUCAAGG
| Strand | log2 enrichment |
| --- | --- |
| UGGCCCUGGUGGCAUGCGGGGAGGAAGAGGUGGCCUCAUGGAUCGUGGUGGUCCCGGUGGAAUGUUCAAAGGUGGCCGUGGUGGAGACAG | 0.19 |
| GCAGGAAGUAAAAACAAAUGGAAAUGCUUCGGAUAGUGGCAGGGGUGGGGGUUGCUAAGGAAAGGGCGGGAUGGGAGUGGGUAAAGAGUU | 0.348 |
| CAAGUCCUGUGCUACACAUCGUAUGUACCGAAUCGGAAAGGGGAAAGGGAAAGGGGAAAGUAUUAUGUUACGCCGUUCGGAUCUGCACUU | 0.296 |
| AGUCCUGUGCUACACAUCGUAUGUACCGAAUCGGGUUUUUGGGUUUUUUUGGGUGGGAAAGUAUUAUGUUACGCCGUUCGGAUCUGCACU | 0.844 |
| AGUCCUGUGCUACACAUCGUAUGUACCGAAUCGGGGUUUUUGGGGUUUGGGGUGGGGAAAGUAUUAUGUUACGCCGUUCGGAUCUGCACU | 1.06 |

Block 2 — method: protein binding microarray; form: double-stranded DNA, one strand shown; medium: in vitro; tested at: not given; baseline: not given; reading: higher = stronger binding
Target: Histone acetyltransferase KAT6A, winged helix 2, GST fusion (KAT6A, Homo sapiens, UniProt Q92794, residues 85-181)
Notes: 8-mer, flanks averaged, mean of 2 arrays, mostly near background
Construct (chain): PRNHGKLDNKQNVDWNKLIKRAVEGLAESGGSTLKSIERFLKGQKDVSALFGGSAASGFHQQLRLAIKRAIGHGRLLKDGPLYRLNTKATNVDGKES
| Strand | E-score |
| --- | --- |
| ACGGTGGC | -0.0503 |
| ACTCGTAT | 0.0323 |
| ATTCCAGG | -0.0448 |
| ATACCTCG | 0.0709 |
| CACGGGAC | 0.11 |
| AAGAAAAA | 0.21 |
| CAGGTAAC | -0.116 |
| AGGTGGTC | -0.102 |
| ATTGTATC | -0.0243 |
| GTCCCTTA | -0.142 |
| GTGCTTTA | 0.0501 |
| AGAGTGCC | -0.114 |
| CGATGTGA | -0.192 |
| CGTTTCCC | 0.0442 |
| CAGCTATC | -0.138 |
| AATCACGC | 0.0134 |
| GGGTGGGA | -0.0804 |
| ACCGCTAA | 0.00464 |
| AAGGTGGT | -0.137 |
| ACCAAACA | 0.0462 |
| AATTTCAC | 0.132 |
| AAAAAGAG | 0.103 |
| AATGCTCT | 0.0197 |
| GGACCCTA | -0.171 |
| CTTGTGTC | -0.0464 |

Block 3 — method: DHFR PCA, deep sequencing; medium: yeast; together with: (+)-ABA 710 µM; baseline: wild-type fitted maximum; reading: higher = stronger binding
Target: ABI1, truncated, D143A, DHFR fusion (Arabidopsis thaliana)
Notes: methotrexate growth selection, single substitutions
Starting sequence: PYL1, truncated, DHFR fusion (Arabidopsis thaliana); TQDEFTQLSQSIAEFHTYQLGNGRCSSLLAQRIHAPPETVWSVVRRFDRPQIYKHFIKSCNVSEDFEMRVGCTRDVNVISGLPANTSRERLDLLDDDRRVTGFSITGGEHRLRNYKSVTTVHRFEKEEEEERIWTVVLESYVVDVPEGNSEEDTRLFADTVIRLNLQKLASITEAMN
| Change | relative binding score |
| --- | --- |
| S42G | 106% |
| E125A | 105% |
| R155C | 99.4% |
| Y18F | 100% |
| E14Y | 84.6% |
| I79R | 99.3% |
| T173F | 94.5% |
| T160Q | 95.2% |
| T173P | 43.2% |
| V137M | 49.8% |
| V142P | -10.2% |
| C60Q | 22.3% |
| F124W | 105% |
| E67D | 99.6% |
| A158M | 94.4% |

Block 4 — method: protein-binding microarray; form: double-stranded DNA, one strand shown; medium: in vitro; tested at: 250 nM; notes: 60-bp whole probe; together with: salmon DNA 0.4 mg/ml; baseline: random background probes; reading: higher = stronger binding; shared flanks, not repeated: GCCTAGCAC … GTCTTGATTCGCTTGACGCTGCTG
Target: Interferon regulatory factor 5, full length, phosphomimetic (IRF5, Homo sapiens, UniProt Q13568-2, residues 1-514, K96S/S451D/S453D/S456D/S462D)
| Strand | log fluorescence [z-score] |
| --- | --- |
| TTAGGTATCGACACTTGGTTAGTGCTA | 2.13 |
| TCAAGGTTCAAGTTTACCACTGTGCTA | -0.16 |
| TCAGTGCTCATCTGTCATACTGTGCTA | -0.0311 |
| GACGGTAACCTACTGCTGACGTGCTAG | -0.355 |
| GACGAACTGAGGACTGGAGACGTGCTA | -0.581 |
| GACCTTTTTAAGATCTGTGCGTGCTAG | -0.143 |
| GACAATCTCAGACTGGAGACGTGCTAG | -0.33 |
| TGAGAACTGAGTTTCGATTAGTGCTAG | 9.2 |
| TTAGATCTCAGACTGAATTAGTGCTAG | -0.053 |
| TTAGGTTTCGGACTGGGTTAGTGCTAG | 5.09 |
| GATGGACTGGGGTATCGGGACGTGCTA | 0.138 |
| TCACATCTCCAAAGTCAGACTGTGCTA | 0.0735 |
| TTAGATTTCAGTGCCGATTAGTGCTAG | 1.31 |
| TCAAGGCCAGGGTTTCTGTTGTGCTAG | 0.366 |
| GACGGACTTCTTCTCCTGACGTGCTAG | -0.218 |
| TTAGGTATCCTACAGCTTTAGTGCTAG | -0.0884 |

Block 5 — target: CCNF, cyclin fold, Cln2 fusion (human); method: yeast growth competition, sequencing; medium: yeast; notes: strong parent motif; baseline: not given; reading: higher = stronger binding
Starting sequence: E2F1 docking peptide (human); PPVKRRLDLETDH
| Change | normalised enrichment score |
| --- | --- |
| E10K | 4.43 |
| R6A | 2.63 |
| D8P | 3.04 |
| R5A | -0.0343 |
| E10S | 5.51 |
| R5H | 0.458 |
| V3S | 3.75 |
| P2I | 4.42 |
| D8T | 4.91 |
| D12I | 6.3 |
| K4F | 3.11 |
| D12N | 6.63 |
| K4G | 3.14 |
| T11K | 5.78 |
| P1C | 6.89 |
| P1E | 4.63 |
| V3Q | 2.51 |

Some of these lines once more (block 1):
| Strand | log2 enrichment |
| --- | --- |
| CAAGUCCUGUGCUACACAUCGUAUGUACCGAAUCGGAAAGGGGAAAGGGAAAGGGGAAAGUAUUAUGUUACGCCGUUCGGAUCUGCACUU | 0.296 |
| UGGCCCUGGUGGCAUGCGGGGAGGAAGAGGUGGCCUCAUGGAUCGUGGUGGUCCCGGUGGAAUGUUCAAAGGUGGCCGUGGUGGAGACAG | 0.19 |
| AGUCCUGUGCUACACAUCGUAUGUACCGAAUCGGGUUUUUGGGUUUUUUUGGGUGGGAAAGUAUUAUGUUACGCCGUUCGGAUCUGCACU | 0.844 |
| GCAGGAAGUAAAAACAAAUGGAAAUGCUUCGGAUAGUGGCAGGGGUGGGGGUUGCUAAGGAAAGGGCGGGAUGGGAGUGGGUAAAGAGUU | 0.348 |
| AGUCCUGUGCUACACAUCGUAUGUACCGAAUCGGGGUUUUUGGGGUUUGGGGUGGGGAAAGUAUUAUGUUACGCCGUUCGGAUCUGCACU | 1.06 |
